# Results collected from several papers.
# Each line is one published result; not all experiments were run side by side. “And” joins repeats or separate records; there may be more than shown. Numbers after ± are the reported error.
Structure (SMILES),test,system,conditions,how to read,endpoint,result
CCO[C@H]1CCN(Cc2c(OC)cc(C)c3[nH]ccc23)[C@H](c2ccc(C(=O)O)cc2)C1,,"human severe hepatic impairment, plasma","oral, 200 mg single dose, median",,unbound half-life,21.2 h
Cc1ccc2c(c1)C(=O)[C@]1(O)CCN(c3ccc4nc(C)ccc4c3)C1=N2,,mouse,"intraperitoneal, 10 mg/kg, 30 min",relative to: brain over plasma,tissue/plasma ratio,1.6
CC(C)(C(=O)N1CCOc2c(C#N)cncc2C1)C(F)F,refers to: CSF leakage,human,"oral, 40 mg, CSF pharmacokinetic cohort",,subjects with adverse event,50%
CC(C)n1c(Nc2cccnc2)nc2cnc(Nc3ccc(N4CCN(C)CC4)cc3)nc21,refers to: nodal rhythm,"healthy human, male","oral, dose not given, CTCAE grade 1-3",,subjects with TEAE,2.4%
Cc1cc(-c2nnc(N)nc2-c2ccc(F)cc2)cc(Cl)n1,,"human male, IO-naive mCRPC","oral, dose not given, phase Ia/Ib, any grade",,patients with treatment-related dizziness,15.4%
O=C(N[C@H](Cc1c[nH]c2ccccc12)C(=O)Nc1ccncc1)c1ccc(-c2cc(C(F)(F)F)ccc2F)cc1F,,"Swiss Webster mouse, female, fat","oral, 50 mg/kg, 8 h, 20% Kolliphor vehicle",,concentration,21.2 µM
COc1cc2nccc(Oc3ccc(NC(=O)c4cc5c(n(-c6ccccc6)c4=O)CCCC5=O)nc3)c2cc1OC,,relapsed or refractory AML,"oral, 6 mg once daily",,grade ≥3 Fatigue patients,0%
CC(C)C(=O)O[C@H]1[C@H](C)OC(=O)[C@@H]1Cc1ccccc1,,water/sediment,"20 °C, whole system, geometric mean, aerobic dark",,DT50,0.84 days
COc1ccc2c3c([nH]c2c1)[C@H](CC(C)C)N1C(=O)[C@H](CC(=O)NC(C)C)NC(=O)[C@@H]1C3,,"Fech-mutant mouse, liver","oral, 100 mg/kg daily, 5 days",,liver protoporphyrin IX,167 ng/g and 87.7 ng/g and 84.3 ng/g
Cc1ccc([C@@H]2O[C@H](CO)[C@@H](O)[C@H](O)[C@H]2O)cc1Cc1ccc(-c2ccc(F)cc2)s1,,Japanese type 2 diabetes patients,"100 mg, day 2, 24 h urine collection",relative to: baseline,urinary potassium excretion change,-8.5 mEq
C=CC(=O)Nc1cc(Nc2nccc(-c3cn(C)c4ccccc34)n2)c(OC)cc1N(C)CCN(C)C,storage stability,human dried blood spot samples,"30 d, -80 °C, HQC level",relative to: nominal concentration,percentage recovery,43.6%
Cc1ccn2c(CNc3ccc(F)cc3)c(-c3ccccn3)nc2c1,,"peritoneal macrophages, Swiss mice","5 days, 5% fetal calf serum",,CC50,> 63.1 µM
C=CC(=O)NC1CCN(c2ncc3ncnc(Nc4ccc(Oc5ccc6c(c5)ncn6C)c(C)c4)c3n2)CC1,,"healthy male volunteers, urine","oral, 60 mg, 0 to 24 h",,renal clearance,0.115 to 0.594 mL/min
CNCc1ccc(-c2[nH]c3cc(F)cc4c3c2CCNC4=O)cc1,refers to: Asthenia/fatigue,human patients,"oral, dose not given, all grades, all doses",,patients with adverse event,50%
NC[C@@]1(CC(=O)O)[C@@H]2CC[C@H]3C[C@@H]2[C@@H]1C3,,"human, severe renal impairment, urine","oral, 20 mg single dose",,cumulative amount excreted,11.8 ± 2.59 mg
Cc1cc(C)c(CNC(=O)c2cc(Cl)c3c(c2C)O[C@@](C)([C@H]2CC[C@H](N(C)C)CC2)O3)c(=O)[nH]1,,"human, plasma","oral, 200 mg, cycle 1 day 1",,half-life total drug,9.46 h
Cc1cccc(CNC(=O)c2cn(CCNC(=O)c3ccccc3Sc3c([N+](=O)[O-])ncn3C)c3cc4c(cc3c2=O)OC(F)(F)O4)n1,,"Sprague-Dawley rat, male, plasma","intramuscular, 10 mg/kg of parent compound",,AUC(0-t),200 ± 47.1 ng·h/mL
Cc1nc(-c2ccc(OCC(C)C)c(C#N)c2)sc1C(=O)O,,healthy Chinese subjects,"oral, 40 mg single, fasting",,participants with AEs grade 3 or above,0%

# Some of these lines once more:
Structure (SMILES),test,system,conditions,how to read,endpoint,result
O=C(N[C@H](Cc1c[nH]c2ccccc12)C(=O)Nc1ccncc1)c1ccc(-c2cc(C(F)(F)F)ccc2F)cc1F,,"Swiss Webster mouse, female, fat","oral, 50 mg/kg, 8 h, 20% Kolliphor vehicle",,concentration,21.2 µM
COc1cc2nccc(Oc3ccc(NC(=O)c4cc5c(n(-c6ccccc6)c4=O)CCCC5=O)nc3)c2cc1OC,,relapsed or refractory AML,"oral, 6 mg once daily",,grade ≥3 Fatigue patients,0%
CC(C)C(=O)O[C@H]1[C@H](C)OC(=O)[C@@H]1Cc1ccccc1,,water/sediment,"20 °C, whole system, geometric mean, aerobic dark",,DT50,0.84 days
